Experimental data of several laboratories.
A part holds a random share of what one study measured.

Set 1 — method: RNA Bind-n-Seq; molecule type: RNA; matrix: in vitro; concentration: 365 nM; relative to: no-protein control; direction: higher = stronger binding; endpoint: RBNS enrichment (R)
Target: RNA binding protein fox-1 homolog 2, RRM domain, GST-SBP tag (RBFOX2, Homo sapiens, UniProt O43251-10, residues 100-194)
Setting: natural RNA segment, single round, ends assumed
Residues (chain): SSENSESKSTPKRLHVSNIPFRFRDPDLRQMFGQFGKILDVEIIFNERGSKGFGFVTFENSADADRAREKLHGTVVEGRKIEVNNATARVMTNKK
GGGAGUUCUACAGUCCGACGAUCAUCUAACCUGGGUUGAGCCUCCUCUCUGCUCUGCCACCGAAAUAAACGUUGAAUUUGGAGUUUGUAACUCUUGGCUGCUUCCUUUGUCUUUAAUUGCUCCACACUUCUUGUGGAAUUCUCGGGUGCCAA: 1.32
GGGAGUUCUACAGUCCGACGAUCCCAACUGCACCCCUGUCGCCUGGAGGAGGGCCAGCUCGCUGCCCGAGCUCUGGCCUAGGGACCUUGCCGCUGACCAAGAGGGAGGACCAGUGCAGGGUCUGUGCACCUUCUGGAAUUCUCGGGUGCCAA: 1.26
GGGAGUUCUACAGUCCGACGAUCUUAACAUUAGGCUCCUUGCUACUUAUGCAAAUUUCUGCAGCUGGCUUGAAUUUCUCCCCAGAAAAUGGGUUUUUCUUUUCUAUUGCAUAGUCAGGCUGCAAAUUUCCAAAUGGAAUUCUCGGGUGCCAA: 0.768
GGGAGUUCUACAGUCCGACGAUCAUUGCCAGUGUCUUUCUUUGGUGCCUUUCCUGUUCAGCAUUCUUAGCCUGUGGCAGUAAAGAGAAACUUUGUGCUACAUGACGACAAAGCUGCUAAAUCUCCUAUUUUUUUGGAAUUCUCGGGUGCCAA: 1.28
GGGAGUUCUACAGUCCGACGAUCUCGAGGAGGAGAUGGCCUAGUGUUACGGCUCGAGACAGGAGGCCAGCCCAGGGGGUUCUGCUUAUGUGUCCCCGUGGCUCUCCACAAAAGGGAGCUAGCACCUCUCCAUCUGGAAUUCUCGGGUGCCAA: 0.48
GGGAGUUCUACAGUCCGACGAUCUUGCUUUUGAUCUUGUCAAAAAACUGAAUAGACCCCAGUUUCGGGAAGGUGUGUGAGCAGUGCCAUGACUCUGCCCCUUACCUAAUCCCACAUCUCUCUAAUGAUAAGACUGGAAUUCUCGGGUGCCAA: 0.641
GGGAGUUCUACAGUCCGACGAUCGAGAAAACAGACAUCACCCUCUACUGCGGGGCCACACCACAUCAGUAGGACACCCCAUACCCAGGCUUGGAGGAGUGCACGCCACACCAAGCCUCUGGGUAGAAUCUGAUUGGAAUUCUCGGGUGCCAA: 0.862
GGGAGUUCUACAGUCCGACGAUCCUAACAUGCCCUCUCUGGAAAGCAUAUGUAUAUAACAUGUGUCAUGUCCUUUGGAAACCUGGUCACCUGGUGAAAACCCUUGGGAUUCUUCCCUGGGCAUGACUGAUGACUGGAAUUCUCGGGUGCCAA: 0.196
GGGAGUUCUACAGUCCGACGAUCGCUCCCCAGACCCGCUCUGUUCCGUUGCUGUUAGAACAGUAGACUACUGACCGCUAUAGAGCAGAUACUCUGAGGGCCGACCCUCGCCUUUUCAUAGACAGACGAGGCAAUGGAAUUCUCGGGUGCCAA: 0.218
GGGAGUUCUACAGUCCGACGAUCUAUCGAUAGCUCCUCCCCCGGGAGACAGAGAGUCGCUCUGGUGGAUCAGUGUACAGAUUGUAUAUAGCGUCAUUUUUACGGAAACCCUUUUGGCGUGCAUAAGGAUCACUUGGAAUUCUCGGGUGCCAA: 0.393
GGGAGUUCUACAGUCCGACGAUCGAAGGUGCCAUUCAGCUCACAGCCGCACCCAGAAUCCUUUGCAGCCCUCCUUCUUUAUUUUUUUCCCAUUGCAUUCUGGGAGUCCACAUCUGGCUUUCUCAGCCACUGUUUGGAAUUCUCGGGUGCCAA: 0.689
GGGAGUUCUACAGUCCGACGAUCAGAAUCAGAUGUAAUAGGAAACAUAGUUUCAGAUUGCUUCUGACAAAGUCUGUGCCACAUUCCUCACAGCAGGUGUGACUCUUUAAGACCAUGAUAGUGGAGUAAGGGAAUGGAAUUCUCGGGUGCCAA: 0.248

Set 2 — method: protein binding microarray; molecule type: double-stranded DNA, one strand shown; matrix: in vitro; concentration: not given; relative to: not given; direction: higher = stronger binding; endpoint: E-score
Target: Histone acetyltransferase KAT6A, both winged helices, GST fusion (KAT6A, Homo sapiens, UniProt Q92794, residues 1-181)
Setting: 8-mer, flanks averaged, mean of 2 arrays, mostly near background
Residues (chain): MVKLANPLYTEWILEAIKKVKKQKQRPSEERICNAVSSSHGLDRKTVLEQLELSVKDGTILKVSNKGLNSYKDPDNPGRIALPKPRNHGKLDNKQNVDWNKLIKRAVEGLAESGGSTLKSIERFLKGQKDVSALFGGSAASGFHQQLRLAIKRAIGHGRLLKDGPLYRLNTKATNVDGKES
AGGGACTC: -0.0722
GCGCTAGA: 0.278
CGTGGACA: 0.123
GAAACGGC: 0.264
AAATTCCT: -0.0901
ATTGGTAA: 0.00893
AACTCGCC: 0.0359
GGCCATTA: -0.0348
CAGGATGA: -0.155
CTGGACTA: -0.204
CAAGATAA: -0.104
CGCATTGC: 0.159
TGCGGCCA: 0.0965
ATTAGAGG: -0.101
CGACAGGC: 0.0193
ATATAGAC: 0.0345
CATTGCAA: -0.0613
GACATAGA: -0.116
CAAAGTGG: -0.266
GCTAGATA: -0.114
CGATCACG: 0.236
AGGAGCTA: -0.19

Set 3 — method: competition protein-binding microarray; molecule type: double-stranded DNA, one strand shown; matrix: in vitro; concentration: 2 µM; added: Cbf1 competitor, 0.05 µM; direction: higher = stronger binding; endpoint: fluorescence intensity
Target: Phosphate system positive regulatory protein PHO4, full length, GST-tagged (PHO4, Saccharomyces cerevisiae, UniProt P07270, residues 1-312)
Setting: whole 60-bp probe, lowest competitor level
Residues (chain): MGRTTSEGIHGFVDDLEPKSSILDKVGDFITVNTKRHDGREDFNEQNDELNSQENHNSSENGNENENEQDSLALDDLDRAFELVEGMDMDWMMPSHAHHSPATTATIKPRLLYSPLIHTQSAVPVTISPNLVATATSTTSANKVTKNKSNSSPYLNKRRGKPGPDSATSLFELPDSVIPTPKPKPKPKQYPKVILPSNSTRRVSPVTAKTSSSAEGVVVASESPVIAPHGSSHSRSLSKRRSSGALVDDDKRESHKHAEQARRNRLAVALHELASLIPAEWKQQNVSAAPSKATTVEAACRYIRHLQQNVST
CTAACGAAGGTTTTTCACGTGACGTACAAGCCAAGTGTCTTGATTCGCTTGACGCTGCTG: 11100 a.u.
TCAAACCTGGCTCACCACGTGGGACATAAGCATATGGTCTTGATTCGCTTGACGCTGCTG: 18700 a.u.
AAAGCGGTAATTTGAAGGGTGGGTGCAGATATCTATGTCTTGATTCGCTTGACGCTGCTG: 4940 a.u.
CTAACGAAGGTTTGCTACGTGGGTGACAAGCCAAGTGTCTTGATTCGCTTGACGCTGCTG: 7450 a.u.
CATCTAAAAGCATTACGCATGCCCTATAACTGGTAAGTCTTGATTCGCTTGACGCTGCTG: 9330 a.u.
CTCCTCTGCAGAAAGCACGAGGTTGCCCTTCTACAGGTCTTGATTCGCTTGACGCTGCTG: 11600 a.u.
CAAAGAAGTAACCTCCACGTTAAGTGCTGAAATAACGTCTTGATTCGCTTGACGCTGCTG: 6230 a.u.
GGCCAAACAACCAGGGTCGTGCCAGTATTTGGCGCCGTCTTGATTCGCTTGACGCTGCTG: 9850 a.u.
GCCAAGATGATTGAAAACATGACAAAGGAGAAAGTCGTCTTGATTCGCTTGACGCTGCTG: 4220 a.u.
CGTAACGTTCTGCTCATCGTGACGGTGGGAGAGCCAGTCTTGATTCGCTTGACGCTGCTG: 6820 a.u.
GTCTTGTCTCATTGACAAGTGGGTGTCCCCACTTCAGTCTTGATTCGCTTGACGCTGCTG: 4300 a.u.
TTTCAAAAATTTCTTAACGTGGGTATTCTTCTTCCTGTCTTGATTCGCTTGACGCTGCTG: 6950 a.u.
TAACGTACAGGAAGTAACGATCAAACAAAATAAATTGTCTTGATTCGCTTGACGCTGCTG: 3520 a.u.
GTCTTGTCTCATTGTTCGGTGGGTGTCCCCACTTCAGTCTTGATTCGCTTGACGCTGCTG: 4740 a.u.
AAAGCGGTAATTTGTCGGGTGGGTGCAGATATCTATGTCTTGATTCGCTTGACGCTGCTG: 4570 a.u.
TCAAAGTAGCATTAGCTCATAAGGCTTTCACCCTTGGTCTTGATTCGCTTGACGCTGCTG: 3000 a.u.
CAGAAGGCAGACCATCACGATTGATAAAGATTAAGCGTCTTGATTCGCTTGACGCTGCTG: 4810 a.u.
CGAAAGAAAGCGAGTCACGATAACGGTGAGGTGATTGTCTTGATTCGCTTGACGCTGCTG: 3830 a.u.
TCTTGAAGATGGTGCAAACAAAGTTCTGTGGGATTCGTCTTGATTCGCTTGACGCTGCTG: 3170 a.u.
CTTCTGTAAATTTTTCACGTGCTGTGAAGCGCCCCGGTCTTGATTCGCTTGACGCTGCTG: 13800 a.u.
CGTCCTAGTGATTGTTAAGTGGGTGCCATGAGGAAGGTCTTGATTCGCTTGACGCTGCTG: 6200 a.u.
CCCGGCCCCCCCAGCCACGTGAACCCCACAAAGTGCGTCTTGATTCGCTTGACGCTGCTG: 10400 a.u.
ATTGCATTCTTAAAACACGTGCTTTACCAGTGGGAAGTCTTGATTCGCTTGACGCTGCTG: 21300 a.u.
AAATTACTAAGTTTTCACGTGACATACCCCGTATGAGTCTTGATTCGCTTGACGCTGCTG: 12700 a.u.
CTAACGAAGGTTTGTCACCAGACTTACAAGCCAAGTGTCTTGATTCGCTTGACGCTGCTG: 2870 a.u.

Set 4 — method: RNA Bind-n-Seq; molecule type: RNA; matrix: in vitro; concentration: 1 µM; setting: whole 134-nt RNA, ends assumed; added: 150 mM KCl; relative to: input library; direction: higher = stronger binding; endpoint: log2 enrichment
Target: Ras GTPase-activating protein-binding protein 1, RRM domain (G3BP1, Homo sapiens, UniProt Q13283)
Chain of UniProt Q13283 (whole entry, looked up): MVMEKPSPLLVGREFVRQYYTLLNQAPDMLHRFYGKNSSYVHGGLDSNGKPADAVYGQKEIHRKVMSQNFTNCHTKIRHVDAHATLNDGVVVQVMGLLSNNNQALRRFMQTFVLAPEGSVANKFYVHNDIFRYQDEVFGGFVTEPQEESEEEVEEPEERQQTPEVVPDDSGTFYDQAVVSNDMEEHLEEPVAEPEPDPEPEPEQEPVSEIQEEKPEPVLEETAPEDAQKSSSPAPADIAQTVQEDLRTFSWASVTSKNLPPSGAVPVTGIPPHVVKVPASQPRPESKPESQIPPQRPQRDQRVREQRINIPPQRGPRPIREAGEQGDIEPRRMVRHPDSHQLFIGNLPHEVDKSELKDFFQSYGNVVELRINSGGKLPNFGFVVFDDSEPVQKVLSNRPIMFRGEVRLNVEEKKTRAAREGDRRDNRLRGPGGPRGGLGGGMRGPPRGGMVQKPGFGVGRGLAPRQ
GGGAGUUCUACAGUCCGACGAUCUGGCCCUGGUGGCAUGCGGGGAGGAAGAGGUGGCCUCAUGGAACGUGGUGGUCCCGGUGGAAUGUUCAGAGGUGGCCGUGGUGGAGACAGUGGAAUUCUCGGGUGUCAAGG: 1.09
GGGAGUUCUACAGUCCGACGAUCAAGUCCUGUGCUACACAUCGUAUGUACCGAAUCGGGUUUGGGAGGGAAAAAAAGGGAAAGUAUUAUGUUACGCCGUUCGGAUCUGCACUUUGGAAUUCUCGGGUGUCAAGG: 0.117
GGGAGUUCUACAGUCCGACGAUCCAAGUCCUGUGCUACACAUCGUAUGUACCGAAUCGGAAAAAGGAAAGGAAAAAGGAAAGUAUUAUGUUACGCCGUUCGGAUCUGCACUUCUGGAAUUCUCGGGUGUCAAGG: -0.0655
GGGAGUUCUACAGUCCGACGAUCUCCUCAAGUCCUGUGCUACACAUCGUAUGUACCGAAUCGGAGGAAAGGAGGAAAGUAUUAUGUUACGCCGUUCGGAUCUGCACUUCCAGCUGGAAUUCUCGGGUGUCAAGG: -0.206
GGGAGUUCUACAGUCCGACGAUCUGGCCCUGGUGGCAUGCGUGGAGGAAGAGGUGGCCUCAUGGAUCGUGGUGGUCCCGGUGGAAUGUUCAGAGGUGGCCGUGGUGGAGACAGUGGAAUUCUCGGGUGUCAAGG: 0.735
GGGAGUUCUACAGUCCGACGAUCUGGCCCUGGUGGCAUGCGGGGAGGAAGAGGUGGCCUCAUGGAUCGUGGUGGUCCCGGUGGAAUGUUCACAGGUGGCCGUGGUGGAGACAGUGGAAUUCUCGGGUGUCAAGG: 1.89
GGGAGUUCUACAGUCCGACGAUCACCAUGCAGGUGGGCAUCUUUGGGAAGUGGGGCAAGGGUGGGAUAGGGAGGGGGGUAACACUUUGGGAACAGGUGGUCCCAGGUCGUUUCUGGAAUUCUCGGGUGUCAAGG: -0.704
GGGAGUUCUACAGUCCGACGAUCCAAGUCCUGUGCUACACAUCGUAUGUACCGAAUCGGGGAAGGGGAAGGGAAGGGGAAAGUAUUAUGUUACGCCGUUCGGAUCUGCACUUCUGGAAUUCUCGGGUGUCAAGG: 1.09
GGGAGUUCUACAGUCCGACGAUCGCAGGAAGUAAAAACAAAUGGAAAUGCUUCGGAUAGUGGCAGGGGUCGGGGUUGCUAAGGAAAGGGUGGGAUGGGAGUGGGUAAAGAGUUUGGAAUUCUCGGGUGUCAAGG: 0.899
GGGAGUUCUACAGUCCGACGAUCGUCCUGUGCUACACAUCGUAUGUACCGAAUCAAAUUUUUAAACCCAAAUUUUUUUAAAAAAGUAUUAUGUUACGCCGUUCGGAUCUGCACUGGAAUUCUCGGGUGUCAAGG: -0.597

Repeated from above (set 2):
CAGGATGA: -0.155
CTGGACTA: -0.204
CAAGATAA: -0.104
CGCATTGC: 0.159
